Assay results pooled from the literature.
Compare with care: the assays were run in different laboratories. “And” joins repeats or separate records; there may be more than shown. ± gives the spread as reported.

SMILES | cell line | test | conditions | scale | quantity | result
COC1=C2CC(C)CC(OC)C(O)C(C)C=C(C)C(OC(N)=O)C(OC)C=CC=C(C)C(=O)NC(=CC1=O)C2=O (stereo not shown) | Rh30 | ChIP-seq, measured: H3K36me3 peak | concentration not given, promoter-TSS chr11:10816400-10831599 | reference: untreated control | log fold change | -0.596
Cc1ncsc1-c1ccc(C(C)NC(=O)C2CC(O)CN2C(=O)C(NC(=O)CCCCCCCCCCN2CCCC(Nc3ncc(Cl)c(Nc4ccccc4S(=O)(=O)C(C)C)n3)C2)C(C)(C)C)cc1 (stereo not shown) | 22Rv1 | RNA-seq, measured: PRKAR2A-AS1 | concentration not given | reference: DMSO | log2 fold change | -1.81
CN1CCCNC(=O)c2cccc(c2)C(=O)NCCCN(C)CCCNc2cccc3c2C(=O)c2cccc(c2C3=O)NCCC1 | SAS | RNA-Seq, measured: DNAJB11 mRNA | 1 µM, 6 h | reference: untreated cells | log2 fold change | -0.912
COc1ccccc1-c1ccncc1C(=O)Nc1nnc(OCc2ccc(Cl)cc2)s1 | PEO1 BRCA2-mutant | – | 1.00 µM, with: olaparib 2 µM | – | colony survival | 0%
CC(C)(C)c1cc(-c2ccc3cc4ccccc4nc3n2)nc(-c2ccc3cc4ccccc4nc3n2)c1.Cc1ccncc1.[Cl-].[Cl-].[Ru+2].c1ccc2cc3nc4c5cccnc5c5ncccc5c4nc3cc2c1 | B16-F10 | resazurin | with: light 733 nm, 9 mW, 100 J/cm2 | – | EC50 | 15 µM
CC1(C)CC[C@@]2(CO)C(=C3C=C[C@@H]4[C@@]5(C)CC[C@H](O)[C@@](C)(CO)[C@@H]5CC[C@@]4(C)[C@]3(C)C[C@@H]2O)C1 | HepG2, SIRT1 siRNA | Western blot, measured: phospho-mTOR | concentration not given, high dose, unit not given, with: ethanol | reference: β-actin | protein level | 0.641 and 0.554 and 1.07
O=CCNCCOn1c(=O)n(OCCNCCO)c(=O)n(OCCNCCOn2c(=O)n(OCCNCCO)c(=O)n(OCCNCCO)c2=O)c1=O | A549 | cell growth or viability, MTT | 25 µg/mL, 72 h | – | viability | 47.2%
CNS(=O)(=O)Nc1nccc(Cc2c(C)c3ccc(Oc4ncccc4F)cc3oc2=O)c1F | TK | cell viability, CellTiter-Glo | 7 days | – | IC50 | > 1 µM
CC(C)c1ccc(N(C)c2ccc3c(c2)OCC[C@H]3CNc2cnccc2C(=O)O)cc1 | KG-1 | cell growth or viability, ATP luminescence | 7 days | – | IC50 | ≥ 10 µM
C=CC(=O)N1CCCC(n2c(=O)c3ncccc3n(Cc3ccc(Oc4ccccc4)cc3)c2=O)C1 (stereo not shown) | Rec1 | measured: CAST | concentration not given | reference: untreated | log2 fold change | 0.26
CCOc1cncc(-c2ccc(NC(=O)C3(c4ccnc(NS(=O)(=O)C5CC5)n4)CCOCC3)nc2)n1 | human Endometrial cancer | cell proliferation, inhibitor, CellTiter-Glo viability | 72 h, 0.1% DMSO | – | IC50 | 10 µM
C[C@@H]1Cc2c([nH]c3ccccc23)[C@@H](c2c(F)cc(/C=C/C(=O)O)cc2F)N1C12CC(C1)C2 | MCF7 | RNA-seq, measured: RERG mRNA | 1 µM, 24 h, E2-induced gene | reference: DMSO vehicle | log2 fold change | -1.45
O=C(C[Se]C(=O)c1cc2ccccc2[nH]1)Nc1cccc(C(F)(F)F)c1 | NCI60 breast subpanel | cell growth | 10 µM, 48 h, one-dose | – | mean growth percent | -62%
Cn1ncc2cc(-c3cncc(Cl)c3N3CCC4(CCNC4=O)CC3)ccc21 | LS174T | gene expression, microarray, measured: CXCL8 mRNA | concentration not given, 4 h | reference: untreated cells | log2 fold change | -4.69
Cc1ccncc1.[Cl-].[Cl-].[Ru+2].c1cc(-c2ccc3cccnc3n2)nc(-c2ccc3cccnc3n2)c1.c1ccc2cc3nc4c5cccnc5c5ncccc5c4nc3cc2c1 | B16-F10 | cytotoxicity, resazurin | dark | – | EC50 | 77 ± 4.3 µM
C=CC(=O)N1[C@H](c2ccc3c(c2)OCO3)c2[nH]c3ccccc3c2C[C@@H]1C(=O)NC1CC1 | rat DRG neurons | – | 10 µM, 48 h, with: vincristine 40 nM | – | neuron degeneration | 10.4% and 9.97%
Cc1nc(Nc2ncc(C(=O)Nc3c(C)cccc3Cl)s2)cc(N2CCN(C(=O)CN)CC2)n1 | KU812 | flow cytometry | concentration not given, 3 h | – | late apoptotic cells | 5.94% and 5.41% and 6.29%
CC(C)(C)c1cc(-c2ccc3cccnc3n2)nc(-c2ccc3cccnc3n2)c1.COc1ccncc1.[Cl-].[Cl-].[Ru+2].c1ccc2cc3nc4c5cccnc5c5ncccc5c4nc3cc2c1 | B16-F10 | – | visible light 100 J/cm2 | reference: dark EC50 over light EC50 | phototherapeutic index | 107
CCN(CC)CC(=O)Nc1cccc(-n2cc(-c3ccc4ccc(-c5cn(-c6cccc(NC(=O)CN(CC)CC)c6)nn5)cc4c3)nn2)c1 | RCC4 | PCR angiogenesis array, measured: SERPINF1 | 5 x IC50, 4 h, normoxia | reference: untreated | fold regulation | -1.3
CCN(C(=O)c1cc(F)ccc1Oc1nncnc1N1CCC2(C1)CN([C@H](CCCN(C)CCOC)C(C)C)C2)C(C)C | U-87 MG | cell growth | 168 h | – | GI50 | > 10 µM
COC(=O)c1cc(NC2=NC(=O)C(=Cc3ccc(N(C)C)cc3)S2)ccc1OC(C)=O | MCF7 | measured: TRIP13 mRNA | 0.81 µM (IC50), 24 h | reference: DMSO | fold change | 0.444
C=C(NC(=O)c1csc(-c2ccc(NC(=O)CCCCCBr)cc2)n1)C(=O)NC(=C)C(=O)OC | U-251 | cell growth or viability | – | – | EC50 | 0.7 µM
CN1CCC(N[C@@H]2CCc3[nH]c4c(C(N)=O)ccc(-c5ccccc5Cl)c4c3C2)CC1 | SU-DHL-4 | cell growth or viability | – | – | IC50 | 0.00634 µM
CCNc1cc2c(cc1C)C1(c3cc(C)c(NCC)cc3O2)c2ccccc2C(=O)N1N=Cc1c[c-]c(-c2ccccn2)cc1.Cc1c(C)c(-c2ccc(-c3ccccc3)cc2)[c-](C)c1C.[Cl-].[Ir+3] | A549 | annexin V/PI flow cytometry | 3.0×IC50, 24 h | – | early apoptotic cells | 11 ± 0.13%
COc1ccc(NC(=O)c2c(Nc3ccccc3)sc(C(=O)N/N=C/c3ccc(OC)c(OC)c3)c2NC(C)=O)cc1 | HCT-116 | cell growth or viability, SRB | 0.1 µM, 48 h | – | viability | 63.5%
